Experimental data from different studies.
Compare with care: the assays were run in different laboratories. “And” joins repeats or separate records; there may be more than shown. Numbers after ± are the reported error.
CASP1: Caspase-1 (CASP1, Homo sapiens, UniProt P29466)
Sequence of UniProt P29466 (whole entry, looked up): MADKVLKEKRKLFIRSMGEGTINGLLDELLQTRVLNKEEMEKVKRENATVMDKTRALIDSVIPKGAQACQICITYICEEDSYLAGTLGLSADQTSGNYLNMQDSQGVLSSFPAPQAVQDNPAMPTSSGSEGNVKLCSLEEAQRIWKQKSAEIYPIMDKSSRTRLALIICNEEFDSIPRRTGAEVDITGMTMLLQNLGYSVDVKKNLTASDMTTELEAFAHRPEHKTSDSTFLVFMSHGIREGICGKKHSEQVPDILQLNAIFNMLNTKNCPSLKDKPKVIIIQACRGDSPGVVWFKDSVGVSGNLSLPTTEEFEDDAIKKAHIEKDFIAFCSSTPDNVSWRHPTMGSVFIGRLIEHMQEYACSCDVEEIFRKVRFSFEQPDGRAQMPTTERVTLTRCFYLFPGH
Rhomboid protease AarA: Rhomboid protease AarA (Providencia stuartii, UniProt P46116)
Sequence of UniProt P46116 (whole entry, looked up): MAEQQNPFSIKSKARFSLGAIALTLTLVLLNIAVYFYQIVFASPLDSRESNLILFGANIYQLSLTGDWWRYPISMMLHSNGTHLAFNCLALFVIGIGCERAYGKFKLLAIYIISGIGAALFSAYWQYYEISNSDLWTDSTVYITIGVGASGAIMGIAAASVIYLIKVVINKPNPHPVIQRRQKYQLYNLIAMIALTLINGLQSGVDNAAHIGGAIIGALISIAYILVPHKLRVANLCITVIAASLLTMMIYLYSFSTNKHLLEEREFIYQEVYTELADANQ
OPRD1: Delta-type opioid receptor (OPRD1, Homo sapiens, UniProt P41143)
Sequence of UniProt P46459 (whole entry, looked up): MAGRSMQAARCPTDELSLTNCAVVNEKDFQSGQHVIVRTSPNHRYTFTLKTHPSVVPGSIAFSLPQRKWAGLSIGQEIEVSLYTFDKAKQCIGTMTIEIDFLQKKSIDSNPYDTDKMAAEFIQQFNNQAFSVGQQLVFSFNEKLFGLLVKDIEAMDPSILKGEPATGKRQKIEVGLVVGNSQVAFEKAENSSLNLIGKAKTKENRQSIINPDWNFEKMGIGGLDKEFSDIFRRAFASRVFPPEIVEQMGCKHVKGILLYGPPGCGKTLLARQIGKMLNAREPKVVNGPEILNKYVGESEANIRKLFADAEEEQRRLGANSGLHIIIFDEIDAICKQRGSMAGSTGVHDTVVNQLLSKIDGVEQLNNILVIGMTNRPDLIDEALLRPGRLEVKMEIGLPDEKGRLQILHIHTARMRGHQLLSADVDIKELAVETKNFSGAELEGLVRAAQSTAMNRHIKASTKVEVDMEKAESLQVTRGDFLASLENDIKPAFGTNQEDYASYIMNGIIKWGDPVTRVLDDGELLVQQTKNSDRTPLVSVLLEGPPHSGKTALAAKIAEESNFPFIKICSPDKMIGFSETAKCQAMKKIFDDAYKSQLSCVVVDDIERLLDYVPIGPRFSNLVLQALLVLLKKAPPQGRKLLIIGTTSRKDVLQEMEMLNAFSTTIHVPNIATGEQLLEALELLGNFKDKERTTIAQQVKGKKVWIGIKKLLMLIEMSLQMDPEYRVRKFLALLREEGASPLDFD
Sequence of UniProt P46089 (whole entry, looked up): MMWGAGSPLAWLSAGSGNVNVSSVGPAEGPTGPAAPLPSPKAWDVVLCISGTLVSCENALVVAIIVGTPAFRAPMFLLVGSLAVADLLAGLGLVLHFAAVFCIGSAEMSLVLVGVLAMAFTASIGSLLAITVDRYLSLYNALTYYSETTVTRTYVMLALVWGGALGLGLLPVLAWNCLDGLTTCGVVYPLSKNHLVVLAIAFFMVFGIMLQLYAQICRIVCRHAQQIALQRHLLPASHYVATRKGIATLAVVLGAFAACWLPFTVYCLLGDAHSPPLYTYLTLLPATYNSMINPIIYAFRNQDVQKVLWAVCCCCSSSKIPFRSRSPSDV
Sequence of UniProt P18074 (whole entry, looked up): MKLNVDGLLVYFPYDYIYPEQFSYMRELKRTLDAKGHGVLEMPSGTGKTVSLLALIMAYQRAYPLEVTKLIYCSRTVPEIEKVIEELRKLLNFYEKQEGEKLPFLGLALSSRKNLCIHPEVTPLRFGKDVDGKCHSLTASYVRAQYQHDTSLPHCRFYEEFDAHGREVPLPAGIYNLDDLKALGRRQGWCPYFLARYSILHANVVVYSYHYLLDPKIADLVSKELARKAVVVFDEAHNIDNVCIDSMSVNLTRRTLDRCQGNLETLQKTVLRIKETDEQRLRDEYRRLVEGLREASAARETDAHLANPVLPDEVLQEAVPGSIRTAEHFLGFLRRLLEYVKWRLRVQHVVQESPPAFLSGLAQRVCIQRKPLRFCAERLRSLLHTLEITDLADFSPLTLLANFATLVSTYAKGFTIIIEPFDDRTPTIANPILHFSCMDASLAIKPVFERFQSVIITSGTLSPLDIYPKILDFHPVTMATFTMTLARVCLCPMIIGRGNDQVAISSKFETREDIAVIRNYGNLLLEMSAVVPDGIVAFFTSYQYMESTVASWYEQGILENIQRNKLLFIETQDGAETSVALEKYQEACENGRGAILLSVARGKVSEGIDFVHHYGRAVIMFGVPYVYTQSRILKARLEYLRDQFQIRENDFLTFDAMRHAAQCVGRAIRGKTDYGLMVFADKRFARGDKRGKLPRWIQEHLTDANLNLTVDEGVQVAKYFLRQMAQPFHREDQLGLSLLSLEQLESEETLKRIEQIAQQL
Sequence of UniProt P41143 (whole entry, looked up): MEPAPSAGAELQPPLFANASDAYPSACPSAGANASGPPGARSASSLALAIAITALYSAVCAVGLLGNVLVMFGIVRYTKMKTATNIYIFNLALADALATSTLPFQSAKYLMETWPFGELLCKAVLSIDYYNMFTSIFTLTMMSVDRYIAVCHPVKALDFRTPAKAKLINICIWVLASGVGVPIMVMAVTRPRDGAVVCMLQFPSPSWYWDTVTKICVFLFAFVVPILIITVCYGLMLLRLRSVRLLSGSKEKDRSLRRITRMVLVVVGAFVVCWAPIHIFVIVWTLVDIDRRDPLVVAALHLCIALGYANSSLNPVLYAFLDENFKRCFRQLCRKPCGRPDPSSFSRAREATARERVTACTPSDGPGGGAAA
Sequence of UniProt P31641 (whole entry, unmodified, looked up): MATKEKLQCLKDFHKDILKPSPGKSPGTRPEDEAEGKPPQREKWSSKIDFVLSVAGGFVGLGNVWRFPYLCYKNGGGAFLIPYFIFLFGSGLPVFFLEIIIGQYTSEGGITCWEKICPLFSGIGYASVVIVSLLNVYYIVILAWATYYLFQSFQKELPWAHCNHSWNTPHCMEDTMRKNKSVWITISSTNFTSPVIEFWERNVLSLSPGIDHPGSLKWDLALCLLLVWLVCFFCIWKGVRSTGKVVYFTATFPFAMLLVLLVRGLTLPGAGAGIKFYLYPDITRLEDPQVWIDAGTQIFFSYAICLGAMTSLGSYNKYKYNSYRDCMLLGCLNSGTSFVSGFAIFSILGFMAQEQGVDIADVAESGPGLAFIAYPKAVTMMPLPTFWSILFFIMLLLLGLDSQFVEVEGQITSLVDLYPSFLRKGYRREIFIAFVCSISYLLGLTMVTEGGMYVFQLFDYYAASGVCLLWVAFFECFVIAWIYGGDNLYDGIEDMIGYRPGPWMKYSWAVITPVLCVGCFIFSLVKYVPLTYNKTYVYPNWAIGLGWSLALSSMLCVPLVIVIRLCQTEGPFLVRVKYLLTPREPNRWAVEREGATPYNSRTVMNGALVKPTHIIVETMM
Sequence of UniProt Q5BJF2 (whole entry, looked up): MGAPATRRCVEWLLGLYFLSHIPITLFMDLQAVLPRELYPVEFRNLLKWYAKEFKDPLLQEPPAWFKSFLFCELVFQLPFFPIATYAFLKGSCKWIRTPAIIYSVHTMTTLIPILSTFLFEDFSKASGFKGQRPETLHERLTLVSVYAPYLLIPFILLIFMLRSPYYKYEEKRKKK
Sequence of UniProt P17706 (whole entry, unmodified, looked up): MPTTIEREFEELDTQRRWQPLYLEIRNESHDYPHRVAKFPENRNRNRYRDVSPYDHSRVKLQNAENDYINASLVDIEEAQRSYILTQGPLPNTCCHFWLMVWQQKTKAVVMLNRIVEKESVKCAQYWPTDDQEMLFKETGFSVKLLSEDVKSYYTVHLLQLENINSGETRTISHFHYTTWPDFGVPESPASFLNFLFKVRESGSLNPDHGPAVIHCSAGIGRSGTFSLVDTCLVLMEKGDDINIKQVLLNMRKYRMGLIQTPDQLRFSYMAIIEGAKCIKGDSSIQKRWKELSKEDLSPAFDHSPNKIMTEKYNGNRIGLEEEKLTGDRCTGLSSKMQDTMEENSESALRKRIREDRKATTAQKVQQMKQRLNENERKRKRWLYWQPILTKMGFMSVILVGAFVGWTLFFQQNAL
Sequence of UniProt Q704Y3 (whole entry, unmodified, looked up): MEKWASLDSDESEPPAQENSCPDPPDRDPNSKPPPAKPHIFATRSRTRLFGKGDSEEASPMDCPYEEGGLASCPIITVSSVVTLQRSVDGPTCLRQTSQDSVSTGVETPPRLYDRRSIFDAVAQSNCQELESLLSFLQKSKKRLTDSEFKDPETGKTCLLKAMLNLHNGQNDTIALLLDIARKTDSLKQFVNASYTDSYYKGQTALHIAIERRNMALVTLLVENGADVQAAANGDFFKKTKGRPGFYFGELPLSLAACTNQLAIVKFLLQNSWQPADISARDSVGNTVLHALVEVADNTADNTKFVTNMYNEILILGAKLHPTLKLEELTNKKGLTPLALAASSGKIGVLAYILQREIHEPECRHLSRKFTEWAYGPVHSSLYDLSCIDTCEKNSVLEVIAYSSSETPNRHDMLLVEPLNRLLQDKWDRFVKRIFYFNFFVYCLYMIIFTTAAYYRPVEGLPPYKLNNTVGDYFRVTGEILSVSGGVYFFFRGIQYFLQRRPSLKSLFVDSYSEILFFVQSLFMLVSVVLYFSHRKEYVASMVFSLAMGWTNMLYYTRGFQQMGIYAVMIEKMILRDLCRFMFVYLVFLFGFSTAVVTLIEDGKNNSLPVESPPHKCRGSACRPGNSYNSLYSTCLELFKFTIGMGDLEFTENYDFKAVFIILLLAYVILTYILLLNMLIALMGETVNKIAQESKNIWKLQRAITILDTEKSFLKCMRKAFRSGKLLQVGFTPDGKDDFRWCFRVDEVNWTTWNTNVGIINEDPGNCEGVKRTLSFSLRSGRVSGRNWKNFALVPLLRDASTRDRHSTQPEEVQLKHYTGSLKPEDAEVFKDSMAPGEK

| Structure (SMILES) | target | test | system | setting | scale | quantity | result |
| --- | --- | --- | --- | --- | --- | --- | --- |
| CC(=O)N[C@@H](CCC(C)C)C(=O)N[C@H](C(=O)N[C@@H](CO)C(=O)N[C@@H](CC(=O)O)C(=O)COC(=O)c1c(C)cccc1C)C(C)(C)C | CASP1 | enzyme activity, inhibitor | – | – | – | kinact/KI | 987000 M⁻¹ s⁻¹ |
| CC(C=CC=C(C)C=CC1=C(C)CCCC1(C)C)=CC=O | Rhodopsin (RHO, Homo sapiens, UniProt P08100, E181K) | ER retention, immunostaining co-localization, refers to: opsin with calnexin | COS-7 transfected E181K | 50.00 µM | – | Pearson correlation coefficient | 0.45 |
| N[C@H]1CC[C@H](Nc2nccc(-c3cccnc3Oc3ccc(NC(=O)NC4CC4)c4ccccc34)n2)CC1 | Vesicle-fusing ATPase (Homo sapiens, UniProt P46459) | kinobead competition pulldown, refers to: NSF | HEK293/HCT116 lysate mixture | 10 µM, 1 h, 4 °C | lower = stronger competition | log2 LFQ intensity | 20.4 and 19.1 and 21.1 and 19.6 |
| Cc1ccc(C2CCN(C3Cc4ccccc4CC3O)CC2)cc1 (racemic) | Vesicular acetylcholine transporter (Rattus norvegicus, UniProt Q62666) | – | – | – | baseline: Ki sigma1 over Ki VAChT | selectivity ratio | 1.1 |
| CC(/C=C/C(=O)NO)=C\[C@@H](C)C(=O)c1ccc(N(C)C)cc1 | Histone deacetylase 8 (HDAC8, Homo sapiens, UniProt Q9BY41) | ITC | Tris-HCl buffer | 283 K | – | TΔS° | 3 kcal/mol |
| CC(C)C[C@H](NC(=O)[C@H](Cc1ccc(O)cc1)NC(=O)[C@H](CC(N)=O)NC(=O)[C@H](CO)NC(=O)CNC(=O)[C@H](Cc1ccc(O)cc1)NC(=O)[C@H](CC(=O)O)NC(=O)CNC(=O)[C@H](Cc1ccc(O)cc1)NC(=O)[C@H](Cc1ccccc1)NC(=O)[C@@H]1CCCN1C(=O)[C@H](Cc1ccccc1)NC(=O)[C@H](CCC(=O)O)NC(=O)[C@H](CCCNC(=N)N)NC(=O)[C@H](Cc1c[nH]cn1)NC(=O)[C@H](CO)NC(=O)[C@H](Cc1c[nH]cn1)NC(=O)[C@H](Cc1c[nH]cn1)NC(=O)[C@H](CCCCN)NC(=O)[C@H](CCC(=O)O)NC(=O)[C@H](Cc1c[nH]cn1)NC(=O)[C@H](Cc1ccccc1)NC(=O)[C@H](CCCCN)NC(=O)[C@H](CCCNC(=N)N)NC(=O)[C@H](CCCNC(=N)N)NC(=O)[C@H](Cc1ccc(O)cc1)NC(=O)CNC(=O)[C@H](Cc1c[nH]cn1)NC(=O)[C@H](Cc1c[nH]cn1)NC(=O)[C@H](CCCNC(=N)N)NC(=O)[C@H](CCCCN)NC(=O)[C@H](CCC(=O)O)NC(=O)[C@H](Cc1c[nH]cn1)NC(=O)[C@H](COP(=O)(O)O)NC(=O)[C@@H](N)CC(=O)O)C(=O)N[C@@H](Cc1ccc(O)cc1)C(=O)N[C@@H](CC(=O)O)C(=O)N[C@@H](CC(N)=O)C(=O)O | Sigma intracellular receptor 2 (TMEM97, Homo sapiens, UniProt Q5BJF2) | binding, SPR | – | 25 °C, HEK293-expressed full-length | – | koff | 0.464 s⁻¹ |
| CC1(C)C[C@@H](Nc2cccc(-c3sc(C(=O)O)c(OCC(=O)O)c3Cl)c2)CCN1S(=O)(=O)Cc1cccc(NC(=O)CN2CCC(c3ccc4c(c3)oc(=O)n4C3CCC(=O)NC3=O)CC2)c1 (stereo partly drawn) | Tyrosine-protein phosphatase non-receptor type 2 (PTPN2, Homo sapiens, UniProt P17706, E41K/R35E/R43E) | degrader, bio-layer interferometry | – | 500 nM | higher = more binding | BLI binding response | 0.986 a.u. |
| CCCCCC(O)/C=C/C=O (stereo not drawn) | L-lactate dehydrogenase A chain (LDHA, Homo sapiens, UniProt P00338) | acylphosphate-ATP probe SILAC-ABPP | ZAK-transfected HEK293T | 100 µM, added: acylphosphate-ATP probe | baseline: DMSO over compound-treated | probe labelling ratio | 0.63 |
| CC(C)[C@@H]1NC(=O)[C@H](Cc2ccccc2)NC(=O)CSC[C@@H](C(N)=O)NC(=O)[C@H](CCC(=O)O)NC(=O)[C@H](CO)NC(=O)[C@H](Cc2c[nH]c3cccc(Cl)c23)NC(=O)[C@H](C2CCCCC2)NC(=O)[C@H](C(C)C)NC(=O)[C@H](Cc2ccc(O)cc2)NC(=O)[C@H](CC(=O)O)NC(=O)[C@H](Cc2c[nH]c3ccccc23)NC(=O)[C@H](Cc2ccc(N)nc2)NC(=O)[C@H](Cc2c[nH]c3ccc(Cl)cc23)NC(=O)[C@H](CCC(=O)O)NC1=O | Interleukin-1 receptor-like 2 (IL1RL2, Homo sapiens, UniProt Q9HB29) | reporter gene (SEAP), inhibitor, HEK-Blue IL-36R reporter | HEK-Blue IL-36R cells | 0.005 µM, 6 h, added: IL-36β 1 ng/mL | – | remaining activity | 97.1% |
| CC(C)Oc1cc(Cl)ccc1CNc1cc(-c2ccccc2)nc2ncnn12 | G-protein coupled receptor 3 (GPR3, Homo sapiens, UniProt P46089) | cAMP reporter | human cells | 30 µM | higher is more cAMP | cAMP luminescence | 4900 a.u. and 5580 a.u. and 7030 a.u. and 3490 a.u. and 1360 a.u. and 2420 a.u. and 13600 a.u. |
| CC(=O)N[C@@H](Cc1ccc(O)cc1)C(=O)N[C@@H](CCCCN)C(=O)N[C@@H](C)C(=O)N[C@@H](CC(=O)O)C(=O)COC(=O)c1c(C)cccc1C | CASP1 | enzyme activity, inhibitor | – | – | – | kinact/KI | 1.24e+06 M⁻¹ s⁻¹ |
| COc1ccc(Cl)cc1NC(=O)CCl | Rhomboid protease AarA | enzyme activity, inhibitor, fluorogenic peptide substrate | – | – | – | IC50 | inactive |
| CCCCCCCC/C=C\CCCCCCCC(=O)NCCO | Transient receptor potential cation channel subfamily V member 1 (Trpv1, Mus musculus, UniProt Q704Y3, S513T) | ion current, agonist, whole-cell patch clamp | – | S513T | – | Hill coefficient | 2 ± 0.55 |
| CN(C)S(=O)(=O)c1ccc(S(=O)(=O)N2CCC(n3c(=O)[nH]c4ccccc43)CC2)cc1 | General transcription and DNA repair factor IIH helicase subunit XPD (ERCC2, Homo sapiens, UniProt P18074) | – | – | concentration not given | – | ATPase activity | 99% and 103% |
| CC(=O)N[C@@H](CC(=O)O)C(=O)N[C@@H](CCCC(=O)O)C(=O)N1[C@H](C(=O)N[C@@H](CC(=O)O)C(=O)COC(=O)c2c(C)cccc2C)C[C@@H]2CCCC[C@@H]21 | CASP1 | enzyme activity, inhibitor | – | – | – | kinact/KI | 71000 M⁻¹ s⁻¹ |
| O=C(CC(Nc1ccc(Cl)cc1C(=O)c1ccccc1)C(=O)O)c1ccccc1 (stereo not drawn) | Heat shock protein HSP 90-alpha, N-terminal domain (HSP90AA1, Homo sapiens, UniProt P07900) | SPR, two-state model | N-terminal domain | – | – | koff | 0.0484 ± 0.0386 s⁻¹ |
| [N-]=[N+]=N[C@]1(COP(=O)(O)OP(=O)(O)OP(=O)(O)O)O[C@@H](n2ccc(N)nc2=O)[C@@H](F)[C@@H]1O | RNA-directed RNA polymerase L (Human respiratory syncytial virus A, UniProt P28887) | nucleotide incorporation, substrate | – | – | – | Vmax | 0.85 fraction per time |
| c1ccc(-c2cccc(-c3ccc([C@@H]4C[C@H]4NC4CCNCC4)cc3)c2)cc1 (racemic) | Lysine-specific histone demethylase 1A, with CoREST (KDM1A, Homo sapiens, UniProt O60341, del684-687) | GC-MS | – | 24 h | – | conversion to styrene | 0.639% and 1.33% |
| CC(=O)N[C@H](C(=O)N[C@@H](CCC(=O)O)C(=O)N[C@@H](CCCCN(C)C)C(=O)N[C@@H](CC(=O)O)C(=O)COC(=O)c1c(C)cccc1C)C(C)C | CASP1 | enzyme activity, inhibitor | – | – | – | kinact/KI | 12600 M⁻¹ s⁻¹ |
| C[C@H](CCC(=O)O)[C@H]1CC[C@H]2[C@@H]3[C@H](OS(=O)(=O)O)C[C@@H]4C[C@H](O)CC[C@]4(C)[C@H]3C[C@H](O)[C@]12C | C-C chemokine receptor type 5 (CCR5, Homo sapiens, UniProt P51681) | – | – | 100 µM | – | activity | 1% |
| Cc1ccc(S(=O)(=O)N2C(=O)CC2C(=O)O)cc1 (stereo not drawn) | Rhomboid protease AarA | enzyme activity, inhibitor, fluorogenic peptide substrate | – | – | – | IC50 | inactive |
| N=C(N)NCCS(=O)(=O)O | Sodium- and chloride-dependent taurine transporter (SLC6A6, Homo sapiens, UniProt P31641, Y138A) | binding, microscale thermophoresis | – | 40 nM, fitted curve | higher = more binding | fraction bound | 0 |
| O=C(O)C1OC(Oc2cc(-c3oc4cc(O)ccc4c(=O)c3O)ccc2O)C(O)C(O)C1O (stereo not drawn) | UDP-glucuronosyltransferase 1A1 (UGT1A1, Homo sapiens, UniProt P22309) | glucuronidation | cell lysate | – | – | Vmax | 4020 ± 590 pmol/min/mg |
| CC(=O)C12NC(C)(C)CC1(C)C(=O)C1=C2c2c(c3c4n2C(C)(C)CC2=C4C4(CC(C)(C)NC(C)(C4)C2=O)CC3(C)C)C(=O)C(C)(C)N1 (single isomer, unassigned; (+)) | OPRD1 | cAMP level, agonist, LANCE Ultra cAMP | CHO | 50 µM | – | activation | 3.99% |
| C[Si]1(C[C@H](CN)CC(=O)O)CCCC1 | OPRD1 | ligand displacement, radioligand | – | 70 µM | – | inhibition | -2% |
| C=CCn1c(=O)c2ccccc2n2c(SCC(=O)NC3CC3)nnc12 | Muscarinic acetylcholine receptor M2 (CHRM2, Homo sapiens, UniProt P08172) | allosteric modulator | – | added: [3H]NMS | – | cooperativity factor | 3.9 ± 1 |
| CCCCOc1ccc(C(=O)OCCN2CC=CCC2)cc1 | Muscarinic acetylcholine receptor M4 (CHRM4, Homo sapiens, UniProt P08173) | – | membranes | 1 µM, 15 h, no carbachol | baseline: control | basal binding | 1.42 ± 0.08 fold |

Excerpt of the above:
| Structure (SMILES) | target | test | system | setting | scale | quantity | result |
| --- | --- | --- | --- | --- | --- | --- | --- |
| CC(=O)N[C@@H](CCC(C)C)C(=O)N[C@H](C(=O)N[C@@H](CO)C(=O)N[C@@H](CC(=O)O)C(=O)COC(=O)c1c(C)cccc1C)C(C)(C)C | CASP1 | enzyme activity, inhibitor | – | – | – | kinact/KI | 987000 M⁻¹ s⁻¹ |
| CC(C=CC=C(C)C=CC1=C(C)CCCC1(C)C)=CC=O | Rhodopsin (RHO, Homo sapiens, UniProt P08100, E181K) | ER retention, immunostaining co-localization, refers to: opsin with calnexin | COS-7 transfected E181K | 50.00 µM | – | Pearson correlation coefficient | 0.45 |
